Results pooled from the literature.
Numbered parts are unrelated; each lists some results of a single study.

Sample 1
Target: Sal-like protein 4, full length isoform B (SALL4, Homo sapiens, UniProt Q9UJQ4-2, residues 1-616)
Technique: universal PBM
Form: double-stranded DNA, one strand shown
Medium: in vitro
Concentration: not given
Setting: 8-mer, flanks averaged, mean of replicates
Direction: higher = stronger binding
Strand | E-score
CCCGACGC | -0.369
CATGAAAC | 0.105
AGCTCGTC | -0.277
AACCGCCT | -0.0673
CGCTCATA | 0.0573
GGGCTAAA | -0.131
AGCACAAA | 0.108
CGGGCTGC | -0.292
GACTGTAA | 0.0456
GGCTTCAA | -0.00297
CTTGGGGA | 0.0243
CCAGCCAA | -0.157
GGTCACCA | -0.358
TCGCCCAA | -0.0887
AAGTTGAA | 0.0548
GAGCCCAC | -0.201
CTATCGCC | -0.153
GCAGAGCC | -0.35
ACGGTAGC | -0.176
CTAGACGA | -0.0374
GGGACCAC | -0.252
CTAAAACA | 0.136
CACGTAGG | -0.0654
GCGTTTAC | -0.104
ACCAAAAA | 0.305

Sample 2
Target: Centromere-binding protein 1, full length, N-terminal tag (CBF1, Saccharomyces cerevisiae, UniProt P17106, residues 1-351)
Chain of UniProt P17106 (whole entry, looked up): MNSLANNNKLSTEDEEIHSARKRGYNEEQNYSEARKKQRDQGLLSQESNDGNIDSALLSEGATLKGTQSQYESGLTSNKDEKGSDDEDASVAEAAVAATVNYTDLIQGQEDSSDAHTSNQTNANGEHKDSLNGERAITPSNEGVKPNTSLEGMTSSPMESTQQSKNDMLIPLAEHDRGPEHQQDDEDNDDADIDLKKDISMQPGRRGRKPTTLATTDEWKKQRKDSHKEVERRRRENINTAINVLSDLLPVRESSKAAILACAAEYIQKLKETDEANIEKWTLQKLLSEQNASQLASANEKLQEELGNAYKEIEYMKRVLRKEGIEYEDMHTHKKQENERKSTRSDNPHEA
Technique: protein-binding microarray
Form: double-stranded DNA, one strand shown
Medium: in vitro
Concentration: 0.8 µM
Setting: whole 60-bp probe, no competitor
Direction: higher = stronger binding
Shared flanks, not repeated: … GTCTTGATTCGCTTGACGCTGCTG
Strand | fluorescence intensity
TGTACGAAGCTATGACTTGTGATTATAGTAGTTAGG | 557 a.u.
TGTACGAAGCTATCTAGCGTGCGTATAGTAGTTAGG | 523 a.u.
CCTAACTACTATAATGGTGATGAATAGCTTCGTACA | 497 a.u.
GAAAGCCACCGTAAGCACGATGGTTTTATCCTCTAG | 454 a.u.
CTATTTATAATTTTTCACCTGTTTCTTTTTGAATTC | 541 a.u.
CTAAGTTGCCAAGCCAACGTGATGTCACAGGTCTTC | 891 a.u.
CTATATTAACCTCACAACGTGATAGAAACCTTGTTC | 1150 a.u.
GAAGACATGTAACATCATCACTTCAAGCACAAATAG | 564 a.u.
CCTAACTACTATATACACCTGCTATAGCTTCGTACA | 537 a.u.
GAAATACATACAGAGCACATGCATGCCATATGATAG | 842 a.u.
GAAGCAGAGGAGCGTCACCGGTAACCCTGAATATAG | 476 a.u.
GAATATTAAATAAACATCAGAACACATTGAGGATAG | 563 a.u.
CTAATAGCAATCGTTTGTGATCACCATTGTCGATTC | 524 a.u.
GAACTAAACAAAAGTGATCACATGAGTTCAAATTAG | 4810 a.u.
CTATGATAAATTCACCACATGTATCTATATATGTTC | 758 a.u.
CTAGTATTTGAAATGCATGTGATTTACAATCCTTTC | 2350 a.u.
CTAAAGCAAGGCAGCATCAGAACGTACCGTCAGTTC | 478 a.u.
CTAATGTTATAGAGTAACGTGGTATAATTACCATTC | 896 a.u.
CCTAACTACTATAATTATGTGACATAGCTTCGTACA | 526 a.u.
CTAAAGCCTATTTCTCACGTTTTCCGGCACTTATTC | 555 a.u.
GAAGAATGTAAGCGTGACATAACTAATTACATGTAG | 1150 a.u.
GAATTCTTATTTTAAGTGATGATGTTCACGAACTAG | 519 a.u.
GAAGTGGTTAATTTACGCCTGATCACCTTATATTAG | 596 a.u.
CTATTGTGTACAGACACGTGCATTTTTGGTACGTTC | 6130 a.u.
GAAGTGTGTGGGTGTGGTGTGGGTGTGGGTGTGTAG | 553 a.u.

Sample 3
Target: RNA binding protein fox-1 homolog 2, RRM domain, GST-SBP tag (RBFOX2, Homo sapiens, UniProt O43251-10, residues 100-194)
Technique: RNA Bind-n-Seq
Form: RNA
Medium: in vitro
Concentration: 365 nM
Setting: natural RNA segment, single round, ends assumed
Relative to: no-protein control
Direction: higher = stronger binding
Shared flanks, not repeated: GGGAGUUCUACAGUCCGACGAUC … UGGAAUUCUCGGGUGCCAA
Residues (chain): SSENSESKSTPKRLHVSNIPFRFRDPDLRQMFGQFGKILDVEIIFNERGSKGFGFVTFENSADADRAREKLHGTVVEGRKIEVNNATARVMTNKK
Strand | RBNS enrichment (R)
AGUAACCUCAAAUUCCUGUUCUUGGUUCUUAUUUAAGCAUGGGUCUUCAUUCAACUCAGAAGGCCUGAUCUGUGUAUAUUCUGGUGUGUAUUGUAUGGUAGCUCUUUGAG | 1.01
CUGUCAUCAAGAAGCUAUCACAUUUUUGGUACCUCUAUAAAGCUAACCCUUCACAAAAGAAAAGAUCACCAAAAGGGGUUGUAUAUUUGAAAACAUUAUACUUGUAUCCA | 0.355
UACAUUGGUAUCUACAAGACAUUAUAGAGCACCUGAAGUUAUUUUAGCCCUAGGGUGGUCCCAACCAUGUGAUGUCUGGAGCAUAGGAUGCAUUCUUAUUGAAUACUAUC | 0.282
UAAACUGUCCUGGGCAGAAGUCUUCUCUGGUGCCCUUCUCCCAUCCUCCAGCCCUUCACUUCCCACUGAGGUUGUCUCUUUACUGCCUGGCAUGACAUCUAAAAGCUCAC | 1.01
AUGUAAUUAAAGGCUUUUCUUAAUAUGUUUUAACCAAAGAUGUGGAGCAAUCCAAGCCACAUAUCUUCUACAUCAAAUUUUUCCAUUUUGGUUAUUUUCAUAAUCUGGUA | 0.392
AACACACGUGUUGGUGCUUCUGGGUAGCACUGGUUUGCAUUAGUUUAUGUUUCCAUGCCAGAGUUUGUGUGGGCGGGCGCAUGUGCACCACAGAGUGCACUCGAGGGGAC | 8.73
AAAAAAAAAAAACUCUAUCUCUUGGAAGUAGCUGAGGUAACCUUCCAGCUCCCUGCACCCAGAGGGGGCCUUCUCACCUCUUCUCAGGAAGCAGCUACGACCCAUUGCCC | 0.512
GAAACUUAAACAUAUAAAAACAUCUAACUGCUUUGUCCUUUUUUAAUUUCAAUAUGUUUAUACUGGUGACUUUUAAGUCAUCUUGUAUUAUCCUGGGUAGGGUGAAAACC | 0.666
CCUGGUGUGCUUUGAAGGCAGAUGAGCUGGUGAUUUCAUUGGGCACUUGGCCCUUUUCCAAGCACAUCUGGGCAGAUAUAGACACAGGAAGAUAGGGUCCAACAGCGAGA | 0.466
UGUCCCUUCUCCCCAGUCAGUAUUACCCUUCGCGCCCAUAUUAUUUAGGAGGGCUUUAGGGGCUCCCUGGUUGAGUAUCACCCUGCCCCUUCCCCUCUCUUCCUCCCCUC | 0.581
AAAGUCAGUUAUGAGUCUACCAGACUUUGUUCUGAAAAAUAGAAACAAAACACCUGAUUAAGCUCUUGAGUAUGGCAUAGGAAUUUUUUAGAAGAAUGCAUUCAAGGAUU | 1.52
ACCUCUUGUGUUGAAUGGAGACCUGGGUUGAGAUGUGUCUGCUCUUGUAGGAAGAUCUUUUGUAUCAGGAACAUGUACACUAGGCCCUGUUCCCGUCCACAAGCUGAGCC | 0.575

Sample 4
Target: Ras GTPase-activating protein-binding protein 1, full length (G3BP1, Homo sapiens, UniProt Q13283)
Chain of UniProt Q13283 (whole entry, looked up): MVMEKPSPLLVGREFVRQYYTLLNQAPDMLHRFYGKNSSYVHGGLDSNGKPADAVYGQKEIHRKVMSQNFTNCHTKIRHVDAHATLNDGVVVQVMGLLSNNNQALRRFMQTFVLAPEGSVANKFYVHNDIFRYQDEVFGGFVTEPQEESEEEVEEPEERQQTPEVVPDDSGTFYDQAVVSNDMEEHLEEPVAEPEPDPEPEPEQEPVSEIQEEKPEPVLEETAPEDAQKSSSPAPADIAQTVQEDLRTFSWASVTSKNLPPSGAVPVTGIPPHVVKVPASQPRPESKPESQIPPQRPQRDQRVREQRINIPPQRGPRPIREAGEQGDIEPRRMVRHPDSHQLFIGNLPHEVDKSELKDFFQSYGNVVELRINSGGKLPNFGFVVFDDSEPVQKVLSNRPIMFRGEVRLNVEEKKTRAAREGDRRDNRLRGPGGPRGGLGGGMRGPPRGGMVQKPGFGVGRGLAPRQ
Technique: RNA Bind-n-Seq
Form: RNA
Medium: in vitro
Concentration: 200 nM
Setting: whole 134-nt RNA, ends assumed
With: 150 mM LiCl
Relative to: input library
Direction: higher = stronger binding
Library: 7-deaza-guanosine replaces G
Shared flanks, not repeated: GGGAGUUCUACAGUCCGACGAUC … UGGAAUUCUCGGGUGUCAAGG
Strand | log2 enrichment
CAAGUCCUGUGCUACACAUCGUAUGUACCGAAUCGGGUUUGGGUUUGGGGUUUGGAAAGUAUUAUGUUACGCCGUUCGGAUCUGCACUUC | -0.932
UCUCUUAUGCUAUUGGAGUUUCUCAUCCAUUAUCUAUCUCCAUUUUCCAUUAUGGUACCUCUCAGAAGAGUGAGAGAGAGCUAUUAGAGA | 0.611
CAAGUCCUGUGCUACACAUCGUAUGUACCGAAUCGGGAGGGAAAGGGAAAAAGGGAAAGUAUUAUGUUACGCCGUUCGGAUCUGCACUUC | 0.214
CUGUGCUACACAUCGUAUGUACCGAAUCGGGUUUUUUUGGUUUUUUUGGGGUUUUUUUGGGGAAAGUAUUAUGUUACGCCGUUCGGAUCU | 1.4
GUCCUGUGCUACACAUCGUAUGUACCGAAUCGGGGUUUUUUUGGGGUUUGGGGAGGGGAAAGUAUUAUGUUACGCCGUUCGGAUCUGCAC | -0.552
CUCAAGUCCUGUGCUACACAUCGUAUGUACCGAAUCGGGGCGGGGCGGGGCGGAAAGUAUUAUGUUACGCCGUUCGGAUCUGCACUUCCA | -0.424
GCAGGAAGUAAAAACAAAUGGAAAUGCUUCGGAUAGUGACAGGGGUGGGGGUUGCUAAGGAAAGGGUGGGAUGGGAGUGGGUAAAGAGUU | -0.0231
AGUUACGGUAGCAGUUCUCAGAGCAGCAGCUAUGGGCAGCCCCAGAGUGGGAGCUACAGCCAGCAGCCUAGCUAUGGUGGACAGCAGCAA | -1.93
AAGUCCUGUGCUACACAUCGUAUGUACCGAAUCGGGAAAGGGGAAAGGGGAAAGGGGAAAGUAUUAUGUUACGCCGUUCGGAUCUGCACU | 1.02
CACAGACAACACGCACCCACACAGACACAGAGGGAAGGGGUUGGGAUGGGGACAGGGUCCACAGCAGGGCGGGGUAGGACCCCAGCCCCU | 0.692
ACCAUGCAGGUGGGCAUCUUUGGGAAGUGGGGCAAGGGGGGGAUAGGGAGGGGGGUAUCACUUUGGGAACAGGUGGUCCCAGGUCGUUUC | 0.194

Some of these lines once more (sample 2):
Strand | fluorescence intensity
CCTAACTACTATATACACCTGCTATAGCTTCGTACA | 537 a.u.
GAAATACATACAGAGCACATGCATGCCATATGATAG | 842 a.u.
GAAGCAGAGGAGCGTCACCGGTAACCCTGAATATAG | 476 a.u.
GAATATTAAATAAACATCAGAACACATTGAGGATAG | 563 a.u.
CTAATAGCAATCGTTTGTGATCACCATTGTCGATTC | 524 a.u.
GAACTAAACAAAAGTGATCACATGAGTTCAAATTAG | 4810 a.u.
CTATGATAAATTCACCACATGTATCTATATATGTTC | 758 a.u.
CTAGTATTTGAAATGCATGTGATTTACAATCCTTTC | 2350 a.u.
